{"sequences": {"note": "Chains of the proteins cited; added tags and fusions are not shown.", "UniProt P51955, whole entry": "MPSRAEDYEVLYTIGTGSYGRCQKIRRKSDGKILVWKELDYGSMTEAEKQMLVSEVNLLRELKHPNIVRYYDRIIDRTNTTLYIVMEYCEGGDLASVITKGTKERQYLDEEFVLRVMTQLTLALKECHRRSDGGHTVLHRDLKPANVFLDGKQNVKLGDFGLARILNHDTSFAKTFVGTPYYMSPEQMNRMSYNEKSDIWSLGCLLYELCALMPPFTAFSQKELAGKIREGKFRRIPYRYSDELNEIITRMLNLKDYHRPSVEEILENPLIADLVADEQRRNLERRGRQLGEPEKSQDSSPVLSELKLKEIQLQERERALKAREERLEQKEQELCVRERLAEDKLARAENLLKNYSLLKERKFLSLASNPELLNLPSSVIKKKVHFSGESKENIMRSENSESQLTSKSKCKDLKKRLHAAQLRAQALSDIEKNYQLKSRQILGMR", "UniProt Q9HBY8, whole entry": "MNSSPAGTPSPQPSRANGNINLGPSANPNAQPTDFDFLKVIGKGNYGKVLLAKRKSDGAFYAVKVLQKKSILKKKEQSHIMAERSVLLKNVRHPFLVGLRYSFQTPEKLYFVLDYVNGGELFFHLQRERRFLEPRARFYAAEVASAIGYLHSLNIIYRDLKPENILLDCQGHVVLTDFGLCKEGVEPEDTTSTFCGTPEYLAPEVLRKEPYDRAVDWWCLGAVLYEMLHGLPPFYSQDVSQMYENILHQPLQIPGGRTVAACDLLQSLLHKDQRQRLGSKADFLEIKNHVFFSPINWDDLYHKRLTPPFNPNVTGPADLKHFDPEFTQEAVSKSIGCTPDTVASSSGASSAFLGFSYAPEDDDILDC"}, "data": "Published values of several laboratories", "note": "± marks the error that the study gave."}
{"Molecule": "CC(=O)N1C[C@@H](COP(=O)(N(C)C)N2C[C@@H](COP(=O)(N(C)C)N3C[C@@H](COP(=O)(N(C)C)N4C[C@@H](COP(=O)(N(C)C)N5C[C@@H](COP(=O)(N(C)C)N6C[C@@H](COP(=O)(N(C)C)N7C[C@@H](COP(=O)(N(C)C)N8C[C@@H](COP(=O)(N(C)C)N9C[C@@H](COP(=O)(N(C)C)N%10C[C@@H](COP(=O)(N(C)C)N%11C[C@@H](COP(=O)(N(C)C)N%12C[C@@H](COP(=O)(N(C)C)N%13C[C@@H](COP(=O)(N(C)C)N%14C[C@@H](COP(=O)(N(C)C)N%15C[C@@H](COP(=O)(N(C)C)N%16C[C@@H](COP(=O)(N(C)C)N%17C[C@@H](COP(=O)(N(C)C)N%18C[C@@H](COP(=O)(N(C)C)N%19C[C@@H](COP(=O)(N(C)C)N%20C[C@@H](COP(=O)(N(C)C)N%21C[C@@H](COP(=O)(N(C)C)N%22C[C@@H](COP(=O)(N(C)C)N%23C[C@@H](COP(=O)(N(C)C)N%24CCN(C(=O)CCCN%25C(=O)CC(SC[C@H](NC(=O)[C@H](CCCNC(=N)N)NC(=O)[C@H](CCCNC(=N)N)NC(=O)[C@H](CCCNC(=N)N)NC(=O)[C@H](CCCNC(=N)N)NC(=O)[C@H](Cc%26ccccc%26)NC(=O)[C@H](Cc%26ccccc%26)NC(=O)[C@H](CCCNC(=N)N)NC(=O)[C@H](CCCNC(=N)N)NC(=O)[C@H](CCCNC(=N)N)NC(=O)[C@H](CCCNC(=N)N)NC(=O)[C@@H](N)CCCNC(=N)N)C(N)=O)C%25=O)CC%24)O[C@@H](n%24cnc%25c(=O)[nH]c(N)nc%25%24)C%23)O[C@@H](n%23cc(C)c(=O)[nH]c%23=O)C%22)O[C@@H](n%22ccc(N)nc%22=O)C%21)O[C@@H](n%21cnc%22c(N)ncnc%22%21)C%20)O[C@@H](n%20cc(C)c(=O)[nH]c%20=O)C%19)O[C@@H](n%19ccc(N)nc%19=O)C%18)O[C@@H](n%18cc(C)c(=O)[nH]c%18=O)C%17)O[C@@H](n%17cc(C)c(=O)[nH]c%17=O)C%16)O[C@@H](n%16cnc%17c(=O)[nH]c(N)nc%17%16)C%15)O[C@@H](n%15ccc(N)nc%15=O)C%14)O[C@@H](n%14cnc%15c(=O)[nH]c(N)nc%15%14)C%13)O[C@@H](n%13ccc(N)nc%13=O)C%12)O[C@@H](n%12ccc(N)nc%12=O)C%11)O[C@@H](n%11cnc%12c(N)ncnc%12%11)C%10)O[C@@H](n%10cc(C)c(=O)[nH]c%10=O)C9)O[C@@H](n9cc(C)c(=O)[nH]c9=O)C8)O[C@@H](n8cc(C)c(=O)[nH]c8=O)C7)O[C@@H](n7cc(C)c(=O)[nH]c7=O)C6)O[C@@H](n6cc(C)c(=O)[nH]c6=O)C5)O[C@@H](n5cnc6c(=O)[nH]c(N)nc65)C4)O[C@@H](n4cc(C)c(=O)[nH]c4=O)C3)O[C@@H](n3cnc4c(=O)[nH]c(N)nc43)C2)O[C@@H](n2cnc3c(=O)[nH]c(N)nc32)C1 (stereo partly drawn)", "target": "ORF50 leader-luciferase RNA", "assay": "luciferase activity, in vitro translation", "test system": "Kaposi's sarcoma-associated herpesvirus", "conditions": "300 nM", "scale": "baseline: mock-treated", "measurement": "inhibition", "result": "98%"}
{"Molecule": "Cc1c(N2CC[C@@H](CN)C2)c(F)cc2c(=O)n(N)c(=O)n(C3CC3)c12", "target": "Staphylococcus aureus topoisomerase IV GrlA S81Y", "assay": "DNA cleavage complex stability", "conditions": "20 µM", "scale": "baseline: wild type", "measurement": "decrease in cleavage complex half-life", "result": "≤ 30%"}
{"Molecule": "U-69593", "target": "human kappa opioid receptor", "assay": "G protein over β-arrestin2, operational model", "conditions": "unit not given", "scale": "baseline: reference agonist", "measurement": "ΔΔlog(τ/KA)", "result": 0}
{"Molecule": "diisopropyl fluorophosphate", "target": "bovine lens protease", "assay": "enzyme activity, inhibitor", "test system": "lens protease-rich fraction", "conditions": "1 mM, 30 min preincubation, 37 °C, added: MCA-62-70 substrate 5 µg", "scale": "baseline: untreated", "measurement": "remaining activity", "result": "78%"}
{"Molecule": "CCC(C)C1NC(=O)/C(=C(/C)O)C1=O (stereo not drawn)", "target": "plasma membrane H+-ATPase (Spinacia oleracea)", "assay": "ATP hydrolysis", "test system": "purified leaf plasma membrane", "conditions": "5 µM, 15 min, leaves pretreated in vivo, unit not given", "scale": "baseline: untreated control", "measurement": "Km", "result": 0.48}
{"Molecule": "U-69593", "target": "opioid receptors, mouse", "assay": "G protein activation, agonist", "test system": "C57BL/6 wild-type mouse striatal membranes", "conditions": "20 µM", "scale": "baseline: vehicle", "measurement": "fold stimulation", "result": "1.32 ± 0.02 fold"}
{"Molecule": "CC(C)[C@H]1CC[C@@H](N2CCC(n3c(CO)cc4ccccc43)CC2)CC1", "target": "L-type calcium channel", "assay": "radioligand binding", "conditions": "10 µM", "measurement": "inhibition", "result": "73%"}
{"Molecule": "Cc1ccc(S(=O)(=O)N(C)CC(=O)N(CC2CCNCC2)c2ccc(C(=O)O)c(O)c2)cc1", "target": "STAT3", "assay": "STAT3 dimer DNA binding, inhibitor, EMSA", "test system": "nuclear extract", "measurement": "IC50", "result": "> 300000 nM"}
{"Molecule": "CN1CC[C@]23c4c5ccc(O)c4O[C@H]2[C@@H](O)C=C[C@H]3[C@H]1C5", "target": "human mu opioid receptor", "assay": "operational model", "scale": "baseline: GTPγS binding over β-arrestin 2 recruitment, relative to DAMGO, above 1 favours GTPγS binding", "measurement": "bias factor", "result": 1.8}
{"Molecule": "pralidoxime iodide", "target": "butyrylcholinesterase (pig), DFP-inhibited", "assay": "reactivator", "scale": "baseline: kr human over kr porcine enzyme", "measurement": "reactivation rate ratio", "result": "5 fold"}
{"Molecule": "13,19-didesmethyl spirolide C", "target": "nicotinic acetylcholine receptor (Torpedo marmorata)", "assay": "binding", "conditions": "added: biotin-α-bungarotoxin", "measurement": "Hill slope", "result": "1.33 ± 0.23"}
{"Molecule": "CC[C@H](C)[C@@H]1NC(=O)[C@H](CCC(=O)O)NC(=O)[C@@H]2CCCN2C(=O)[C@H](Cc2c[nH]cn2)NC(=O)[C@H](CC(=O)O)NC(=O)[C@H](Cc2ccc(O)cc2)NC(=O)[C@H](CC(N)=O)NC(=O)[C@@H]2CSSC[C@@H]3NC(=O)CNC(=O)CNC(=O)CNC(=O)[C@H](C)NC(=O)[C@H](C)NC(=O)CNC(=O)CNC(=O)[C@H](CSSC[C@H](NC3=O)C(=O)N[C@@H](CO)C(=O)N[C@@H](CC(=O)O)C(=O)N3CCC[C@H]3C(=O)N[C@@H](CCCNC(=N)N)C(=O)N2)NC1=O", "target": "Cav2.1 human α1A-2", "assay": "Ba2+ current", "conditions": "200 nM, without GABA-B receptor", "measurement": "inhibition", "result": "0%"}
{"Molecule": "CC#C/C(=N\\OC[C@H]1COCCN1)c1ccc2ncnc(Nc3ccc(OCc4cccc(F)c4)c(Cl)c3)c2c1", "target": "Serine/threonine-protein kinase Nek2 (NEK2, Homo sapiens, UniProt P51955)", "assay": "kinase activity", "conditions": "10 µM", "measurement": "inhibition", "result": "22.1%"}
{"Molecule": "CCN1CCN(Cc2ccc(NC(=O)c3ccc(C)c(/C=C/c4cnc5[nH]ccc5c4OC)c3)cc2C(F)(F)F)CC1", "target": "Serine/threonine-protein kinase Sgk2 (SGK2, Homo sapiens, UniProt Q9HBY8)", "assay": "kinase-CDC37 interaction, inhibitor", "test system": "human cells", "conditions": "5 µM", "scale": "baseline: vehicle", "measurement": "log2 fold change", "result": 0.142}
{"Molecule": "C[C@H]1COc2c(N3CCN(C)CC3)c(F)cc3c(=O)c(C(=O)O)cn1c23", "target": "Staphylococcus aureus topoisomerase IV GrlA S81F", "measurement": "maximal DNA cleavage", "result": "29.3%"}
{"Molecule": "c1ccc(Nc2cccc3ccccc23)cc1", "target": "Manis javanica OBP3 Y130A", "assay": "binding, fluorescence binding", "conditions": "added: 1-NPN probe", "measurement": "Kd", "result": "420 ± 160 nM"}
{"Molecule": "methylarsonous diiodide", "target": "pyruvate dehydrogenase complex, porcine", "assay": "enzyme activity, inhibitor", "conditions": "1 h, 1 h preincubation, as ppb arsenic", "measurement": "IC50", "result": "6.9 ppb"}
{"Molecule": "nociceptin", "target": "nociceptin receptor (human)", "assay": "BRET", "scale": "baseline: compound as unbiased standard, G protein over β-arrestin 2", "measurement": "bias factor", "result": 0}
